Published values pooled from the literature.
Each line is one published result; not all experiments were run side by side. ± marks the error that the study gave.

SMILES	assay	system	setting	tissue uptake
O=C(NCC1OC2CCC=CCCC2O1)c1ccc([18F])nc1 (stereo not shown)		healthy female BALB/c nude mice, heart	intravenous, 7.4 MBq per mouse, 5 min	4.2 ± 1.3 %ID/g
CCCC[C@H](NC(=O)COCCOCCNC(=O)CN1CCN(CC(=O)O)CCN(CC(=O)O)CC1)C(=O)N[C@H]1CC(=O)NCCCC[C@@H](C(N)=O)NC(=O)[C@H](Cc2c[nH]c3ccccc23)NC(=O)[C@H](CCCNC(=N)N)NC(=O)[C@@H](Cc2ccccc2)NC(=O)[C@H](Cc2c[nH]cn2)NC1=O [fluorine-18 labelled]		C57 mice, B16/F10 melanoma, pancreas	intravenous, 1 h, with: NDP-MSH 10 µg	0.01 ± 0.01 %ID/g
Cc1cc(C)n(CCN(CCN)CCCCCCNC(=O)[C@@H](N)Cc2c[nH]cn2)n1.[99Tc+].[C-]#[O+].[C-]#[O+].[C-]#[O+]		BALB/c nude mice, MCF7 xenograft, muscle	intravenous, 4 h	0.14 ± 0.01 %IA/g
CCCC[C@H](NC(=O)CCCCCCCNC(=O)CN1CCN(CC(=O)O)CCN(CC(=O)O)CC1)C(=O)N[C@H]1CC(=O)NCCCC[C@@H](C(N)=O)NC(=O)[C@H](Cc2c[nH]c3ccccc23)NC(=O)[C@H](CCCNC(=N)N)NC(=O)[C@@H](Cc2ccccc2)NC(=O)[C@H](Cc2c[nH]cn2)NC1=O [fluorine-18 labelled]		C57 mice, B16/F10 melanoma, spleen	intravenous, 1 h, with: NDP-MSH 10 µg	0.32 ± 0.17 %ID/g
COc1ccc(Nc2nc(Nc3ccc(OCCOCC[18F])cc3)ncc2Br)cc1		ICR mice, S180 tumour-bearing, liver	intravenous, 370 kBq, 30 min	2.59 ± 0.2 %ID/g
CC(C)C[C@H](NC(=O)[C@@H](CCCCNC(=O)[C@@H](Cc1ccccc1)NC(=O)CCCCCCCNC(=O)CN1CCN(CC(=O)O)CCN(CC(=O)O)CCN(CC(=O)O)CC1)NC(=O)[C@H](Cc1ccc(O)cc1)NC(=O)[C@H](CO)NC(=O)[C@H](Cc1c[nH]c2ccccc12)NC(=O)[C@H](Cc1c[nH]cn1)NC(=O)[C@@H]1CCC(=O)N1)C(=O)N[C@@H](CCCNC(=N)N)C(=O)N1CCC[C@H]1C(=O)NCC(N)=O [indium-111 labelled]	biodistribution	male athymic nude mice, DU-145 prostate cancer xenograft, heart	intravenous, 0.037 MBq, 0.5 h post-injection	0.65 ± 0.11 %ID/g
CCCC[C@H](NC(=O)CNC(=O)CNC(=O)[C@H](CCCCNC(=O)C(C)c1ccc(CC(C)C)cc1)NC(=O)CN1CCN(CC(=O)O)CCN(CC(=O)O)CCN(CC(=O)O)CC1)C(=O)N[C@H]1CC(=O)NCCCC[C@@H](C(N)=O)NC(=O)[C@H](Cc2c[nH]c3ccccc23)NC(=O)[C@H](CCCNC(=N)N)NC(=O)[C@@H](Cc2ccccc2)NC(=O)[C@H](Cc2c[nH]cn2)NC1=O (stereo partly shown) [lutetium-177 labelled]		C57 mice, tumour-bearing, spleen	2 h	1.71 ± 0.47 %ID/g
O=C(NCC1OC2CCC=CCCC2O1)c1ccc(COCCOCCOCC[18F])cc1 (stereo not shown)		healthy female BALB/c nude mice, bone	intravenous, 7.4 MBq per mouse, 30 min	1.5 ± 0.1 %ID/g
Cc1cc(C)n(CCN(CCN)CCCCCCNC(=O)[C@@H](N)Cc2c[nH]c3ccccc23)n1.[99Tc+].[C-]#[O+].[C-]#[O+].[C-]#[O+]		BALB/c nude mice, A549 xenograft, bone	intravenous, 15 min	0.74 ± 0.22 %IA/g
CCCC[C@H](NC(=O)CNC(=O)CNC(=O)[C@H](CCCCNC(=O)[C@H](CC(=O)O)NC(=O)C(C)c1ccc(CC(C)C)cc1)NC(=O)CN1CCN(CC(=O)O)CCN(CC(=O)O)CCN(CC(=O)O)CC1)C(=O)N[C@H]1CC(=O)NCCCC[C@@H](C(N)=O)NC(=O)[C@H](Cc2c[nH]c3ccccc23)NC(=O)[C@H](CCCNC(=N)N)NC(=O)[C@@H](Cc2ccccc2)NC(=O)[C@H](Cc2c[nH]cn2)NC1=O (stereo partly shown) [lutetium-177 labelled]		C57 mice, tumour-bearing, blood	intravenous, 0.037 MBq, 24 h	0.09 ± 0.02 %ID/g

Repeated from above:
SMILES	assay	system	setting	tissue uptake
O=C(NCC1OC2CCC=CCCC2O1)c1ccc(COCCOCCOCC[18F])cc1 (stereo not shown)		healthy female BALB/c nude mice, bone	intravenous, 7.4 MBq per mouse, 30 min	1.5 ± 0.1 %ID/g
